Experimental data gathered from unrelated publications.
Values joined by “and” are separate records of one study, mostly repeats; a detail may differ. ± marks the error that the study gave.
USP16 ZnF-UBD domain: Ubiquitin carboxyl-terminal hydrolase 16, ZnF-UBD domain (USP16, Homo sapiens, UniProt Q9Y5T5)
Chain of UniProt Q9Y5T5 (whole entry, looked up): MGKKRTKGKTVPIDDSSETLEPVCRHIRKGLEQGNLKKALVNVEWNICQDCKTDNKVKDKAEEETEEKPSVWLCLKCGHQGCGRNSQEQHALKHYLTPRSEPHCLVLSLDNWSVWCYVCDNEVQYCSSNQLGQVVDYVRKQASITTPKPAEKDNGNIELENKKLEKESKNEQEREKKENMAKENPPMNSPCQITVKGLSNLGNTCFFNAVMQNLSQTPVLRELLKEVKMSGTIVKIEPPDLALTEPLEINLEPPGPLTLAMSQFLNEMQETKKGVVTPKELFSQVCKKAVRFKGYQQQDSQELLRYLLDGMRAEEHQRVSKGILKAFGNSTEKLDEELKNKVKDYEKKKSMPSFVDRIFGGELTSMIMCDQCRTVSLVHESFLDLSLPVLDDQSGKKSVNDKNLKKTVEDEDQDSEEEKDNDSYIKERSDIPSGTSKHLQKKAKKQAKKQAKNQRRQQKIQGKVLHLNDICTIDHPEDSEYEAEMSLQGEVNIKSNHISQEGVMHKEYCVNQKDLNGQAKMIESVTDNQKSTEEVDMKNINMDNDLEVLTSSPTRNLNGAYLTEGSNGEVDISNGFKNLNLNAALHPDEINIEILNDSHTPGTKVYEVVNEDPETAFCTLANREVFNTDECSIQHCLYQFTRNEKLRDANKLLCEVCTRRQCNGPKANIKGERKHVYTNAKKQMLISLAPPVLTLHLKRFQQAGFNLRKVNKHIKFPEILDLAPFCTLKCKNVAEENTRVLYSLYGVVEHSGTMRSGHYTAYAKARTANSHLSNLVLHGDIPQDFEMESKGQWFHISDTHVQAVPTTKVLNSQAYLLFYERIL
CYP2D6: Cytochrome P450 2D6 (CYP2D6, Homo sapiens, UniProt P10635)
Chain of UniProt P10635 (whole entry, looked up): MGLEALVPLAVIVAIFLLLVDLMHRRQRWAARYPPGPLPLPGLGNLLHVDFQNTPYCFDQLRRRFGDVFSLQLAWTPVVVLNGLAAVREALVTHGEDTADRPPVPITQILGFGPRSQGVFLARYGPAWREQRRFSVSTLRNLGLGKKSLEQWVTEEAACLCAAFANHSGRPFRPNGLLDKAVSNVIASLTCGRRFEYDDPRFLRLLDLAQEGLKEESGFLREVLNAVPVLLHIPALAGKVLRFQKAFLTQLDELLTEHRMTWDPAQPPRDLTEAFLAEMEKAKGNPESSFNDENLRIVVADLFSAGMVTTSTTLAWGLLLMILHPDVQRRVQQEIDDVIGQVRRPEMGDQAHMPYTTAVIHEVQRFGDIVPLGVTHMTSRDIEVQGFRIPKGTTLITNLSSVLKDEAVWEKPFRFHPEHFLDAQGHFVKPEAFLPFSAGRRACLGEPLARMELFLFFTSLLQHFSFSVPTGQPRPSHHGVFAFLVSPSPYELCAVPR
DDX50: ATP-dependent RNA helicase DDX50 (DDX50, Homo sapiens, UniProt Q9BQ39)
Chain of UniProt Q9BQ39 (whole entry, looked up): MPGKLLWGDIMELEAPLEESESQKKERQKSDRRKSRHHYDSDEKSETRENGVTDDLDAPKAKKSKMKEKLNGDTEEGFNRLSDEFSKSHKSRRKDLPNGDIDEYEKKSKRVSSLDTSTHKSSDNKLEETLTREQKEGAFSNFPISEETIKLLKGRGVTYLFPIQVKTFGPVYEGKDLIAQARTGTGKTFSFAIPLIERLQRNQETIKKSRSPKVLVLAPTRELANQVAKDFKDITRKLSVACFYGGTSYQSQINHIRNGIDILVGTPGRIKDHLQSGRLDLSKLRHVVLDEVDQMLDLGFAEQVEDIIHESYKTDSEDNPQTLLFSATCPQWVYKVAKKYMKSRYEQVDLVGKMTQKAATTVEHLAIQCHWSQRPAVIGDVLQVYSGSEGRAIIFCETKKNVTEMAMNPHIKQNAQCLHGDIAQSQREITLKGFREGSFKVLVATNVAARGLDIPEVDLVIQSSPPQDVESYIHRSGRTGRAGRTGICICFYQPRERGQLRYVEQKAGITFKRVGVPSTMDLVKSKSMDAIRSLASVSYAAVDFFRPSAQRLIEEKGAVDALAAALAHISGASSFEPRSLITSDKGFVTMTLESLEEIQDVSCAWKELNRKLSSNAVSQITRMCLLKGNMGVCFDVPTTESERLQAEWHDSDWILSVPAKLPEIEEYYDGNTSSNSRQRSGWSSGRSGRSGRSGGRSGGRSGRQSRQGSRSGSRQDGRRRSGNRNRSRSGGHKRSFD
CSNK1A1: Casein kinase I isoform alpha (CSNK1A1, Homo sapiens, UniProt P48729)
Chain of UniProt Q16774 (whole entry, unmodified, looked up): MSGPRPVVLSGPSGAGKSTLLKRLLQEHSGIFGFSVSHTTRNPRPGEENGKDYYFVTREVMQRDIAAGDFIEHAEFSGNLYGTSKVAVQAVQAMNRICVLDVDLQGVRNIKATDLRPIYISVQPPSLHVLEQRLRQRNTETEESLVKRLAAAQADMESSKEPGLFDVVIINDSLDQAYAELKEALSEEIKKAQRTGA
Chain of UniProt P48729 (whole entry, looked up): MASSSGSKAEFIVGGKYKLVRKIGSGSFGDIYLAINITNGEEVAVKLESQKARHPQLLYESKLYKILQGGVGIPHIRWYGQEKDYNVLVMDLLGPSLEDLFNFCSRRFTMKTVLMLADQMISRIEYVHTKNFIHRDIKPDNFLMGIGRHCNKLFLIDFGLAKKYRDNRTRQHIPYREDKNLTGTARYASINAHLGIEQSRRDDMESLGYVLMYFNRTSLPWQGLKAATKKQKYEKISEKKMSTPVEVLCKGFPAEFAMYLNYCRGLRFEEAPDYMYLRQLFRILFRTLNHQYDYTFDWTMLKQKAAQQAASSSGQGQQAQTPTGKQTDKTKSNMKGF
Chain of UniProt Q9NZC2 (whole entry, looked up): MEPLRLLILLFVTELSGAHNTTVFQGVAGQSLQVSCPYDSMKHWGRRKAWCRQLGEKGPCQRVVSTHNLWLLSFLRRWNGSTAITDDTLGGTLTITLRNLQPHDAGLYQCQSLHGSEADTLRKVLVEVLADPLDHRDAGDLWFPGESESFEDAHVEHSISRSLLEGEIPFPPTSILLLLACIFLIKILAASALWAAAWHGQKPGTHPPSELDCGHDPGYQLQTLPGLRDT
Chain of UniProt Q6NT16 (whole entry, unmodified, looked up): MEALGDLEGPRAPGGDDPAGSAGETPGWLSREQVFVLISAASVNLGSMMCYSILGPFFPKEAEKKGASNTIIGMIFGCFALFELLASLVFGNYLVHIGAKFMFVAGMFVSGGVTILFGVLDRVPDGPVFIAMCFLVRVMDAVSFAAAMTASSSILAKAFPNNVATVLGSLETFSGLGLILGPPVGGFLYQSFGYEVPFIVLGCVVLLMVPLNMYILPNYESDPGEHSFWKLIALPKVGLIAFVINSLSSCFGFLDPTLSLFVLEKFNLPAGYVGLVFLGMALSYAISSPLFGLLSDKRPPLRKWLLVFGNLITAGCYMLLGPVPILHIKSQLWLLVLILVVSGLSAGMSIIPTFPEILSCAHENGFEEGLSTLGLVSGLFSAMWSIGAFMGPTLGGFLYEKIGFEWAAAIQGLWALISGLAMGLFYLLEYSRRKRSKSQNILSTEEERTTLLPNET
Chain of UniProt P43166 (whole entry, looked up): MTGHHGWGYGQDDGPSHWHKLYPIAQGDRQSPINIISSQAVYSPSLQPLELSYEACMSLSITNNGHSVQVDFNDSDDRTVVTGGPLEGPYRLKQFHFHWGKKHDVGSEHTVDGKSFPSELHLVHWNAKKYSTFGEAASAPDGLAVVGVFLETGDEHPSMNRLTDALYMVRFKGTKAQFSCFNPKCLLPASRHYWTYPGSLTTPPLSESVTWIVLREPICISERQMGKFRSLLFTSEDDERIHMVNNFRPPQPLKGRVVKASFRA
Chain of UniProt Q92769 (whole entry, looked up): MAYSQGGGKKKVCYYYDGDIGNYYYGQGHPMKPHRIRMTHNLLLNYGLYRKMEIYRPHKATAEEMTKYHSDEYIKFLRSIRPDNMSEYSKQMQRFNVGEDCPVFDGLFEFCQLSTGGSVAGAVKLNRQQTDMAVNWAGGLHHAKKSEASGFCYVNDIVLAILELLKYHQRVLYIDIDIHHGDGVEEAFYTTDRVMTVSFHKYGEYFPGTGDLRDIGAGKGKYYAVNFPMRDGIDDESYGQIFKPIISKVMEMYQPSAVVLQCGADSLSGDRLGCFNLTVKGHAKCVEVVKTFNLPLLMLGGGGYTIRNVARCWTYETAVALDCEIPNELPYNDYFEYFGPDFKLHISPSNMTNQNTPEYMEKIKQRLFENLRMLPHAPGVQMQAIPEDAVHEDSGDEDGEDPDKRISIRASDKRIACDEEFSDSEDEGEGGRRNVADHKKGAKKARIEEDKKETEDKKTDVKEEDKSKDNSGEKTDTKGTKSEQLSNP
Chain of UniProt P51589 (whole entry, looked up): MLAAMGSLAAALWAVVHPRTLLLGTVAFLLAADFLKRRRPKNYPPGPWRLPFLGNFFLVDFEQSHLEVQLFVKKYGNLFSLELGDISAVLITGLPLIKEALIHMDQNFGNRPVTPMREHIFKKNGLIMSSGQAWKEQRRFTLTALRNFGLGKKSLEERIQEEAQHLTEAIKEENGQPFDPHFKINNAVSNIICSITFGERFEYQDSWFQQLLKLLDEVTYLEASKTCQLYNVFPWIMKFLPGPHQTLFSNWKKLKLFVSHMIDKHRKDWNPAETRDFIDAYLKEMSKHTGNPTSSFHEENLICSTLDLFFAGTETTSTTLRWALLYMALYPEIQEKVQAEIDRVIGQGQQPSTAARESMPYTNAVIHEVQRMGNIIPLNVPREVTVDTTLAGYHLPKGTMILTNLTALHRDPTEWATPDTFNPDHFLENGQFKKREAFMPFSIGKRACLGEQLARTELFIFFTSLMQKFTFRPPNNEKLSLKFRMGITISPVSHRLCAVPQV
Chain of UniProt Q9BY41 (whole entry, looked up): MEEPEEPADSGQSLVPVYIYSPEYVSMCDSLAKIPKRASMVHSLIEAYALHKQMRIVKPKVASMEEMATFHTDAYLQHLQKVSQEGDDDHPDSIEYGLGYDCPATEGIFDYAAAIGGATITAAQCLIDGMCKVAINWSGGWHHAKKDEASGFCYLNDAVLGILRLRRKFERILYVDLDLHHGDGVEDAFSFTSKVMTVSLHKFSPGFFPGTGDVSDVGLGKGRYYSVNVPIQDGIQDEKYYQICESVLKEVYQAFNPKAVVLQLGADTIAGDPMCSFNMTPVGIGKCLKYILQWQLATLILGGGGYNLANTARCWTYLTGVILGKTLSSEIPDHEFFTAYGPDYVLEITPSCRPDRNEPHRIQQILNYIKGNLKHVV

SMILES = O=C(NO)c1cnc(NC2(c3ccccc3)CC2)nc1; target = HDAC8 (Homo sapiens, UniProt Q9BY41); assay = inhibitor, competition pulldown; test system = SW620 and MV4-11 lysate; setting = 1 h; Kd = > 30.2 µM
SMILES = Nc1ncnc2c1ncn2[C@@H]1O[C@H](COP(=O)(O)OP(=O)(O)O)[C@@H](O)[C@H]1O; target = CKMT1A (Homo sapiens, UniProt P12532, E265Q); assay = microscale thermophoresis; setting = pH 8.5, with: phosphocreatine 10 mM; Kd = 3 ± 2 µM
SMILES = Cc1ccc(C(=O)O)cc1S(=O)(=O)Nc1cccc(C(=O)CCC(=O)O)c1; target = USP16 ZnF-UBD domain; Kd = 114 µM
SMILES = C=C1CC(C(=O)Nc2cc(C(=O)NC)cc(-c3cccs3)c2OC)C1; target = Triggering receptor expressed on myeloid cells 2 (Homo sapiens, UniProt Q9NZC2); assay = binding; Kd = 76.4 µM and 76 µM
SMILES = Nc1ncnc2c1ncn2[C@@H]1O[C@H](COP(=O)(O)OP(=O)(O)O)[C@@H](O)[C@H]1O; target = GUK1 (Homo sapiens, UniProt Q16774, N171A); assay = binding, ITC; setting = 25 °C, with: GMP; Kd = > 200 µM
SMILES = O=C(O)Cn1ccc2ccccc2c1=O; target = USP16 ZnF-UBD domain; Kd = > 1000 µM
SMILES = CS(=O)(=O)c1cccc(CNc2nc(Nc3ccc4c(c3)CCC(=O)N4)ncc2C(F)(F)F)c1; target = Carboxypeptidase Z (CPZ, Homo sapiens, UniProt Q66K79); assay = binding; Kd = 7.5 µM
SMILES = O=C(O)CCn1nnc(-c2ccccc2)n1; target = USP16 ZnF-UBD domain; Kd = 482 µM
SMILES = CN1C2CCCC1CC(NC(=O)c1nn(C)c3ccccc13)C2 (stereo not shown); target = Soluble acetylcholine receptor (Aplysia californica, UniProt Q8WSF8); assay = homologous competition SPA; setting = with: [3H]compound; Kd = 1.18 ± 0.015 µM
SMILES = O=C(O)Cc1cccc2cccnc12; target = USP16 ZnF-UBD domain; Kd = > 1000 µM
SMILES = C=C1CCN([C@H](C)[C@](O)(Cn2cncn2)c2ccc(F)cc2F)CC1; target = CYP2D6; assay = binding; setting = 20 min, pH 7.4, purified protein, 2% DMSO; Kd = 28.2 µM
SMILES = O=C(O)CNc1ccc2nncn2n1; target = USP16 ZnF-UBD domain; Kd = > 1000 µM
SMILES = Nc1ncnc2c1ncn2[C@@H]1O[C@H](COP(=O)(O)OP(=O)(O)OP(=O)(O)O)[C@@H](O)[C@H]1O; target = DDX50; assay = microscale thermophoresis; test system = PBST; setting = 25 °C, compound-binding domain, no glucose; Kd = 1.6 ± 0.46 µM
SMILES = CCCCOc1ccc(CC(=O)NO)cc1; target = HDAC2 (Homo sapiens, UniProt Q92769); assay = inhibitor, competition pulldown; test system = SW620 and MV4-11 lysate; setting = 1 h; Kd = > 30.2 µM
SMILES = Nc1nc(-c2ccc(Cl)c(S(N)(=O)=O)c2)cs1; target = CA7 (Homo sapiens, UniProt P43166); assay = thermal shift; setting = pH 7.0, 25 °C; Kd = 0.067 µM
SMILES = Fc1ccc(NC(=S)NCCCn2ccnc2)c(F)c1; target = CYP2D6; assay = binding; setting = 20 min, pH 7.4, purified protein, 2% DMSO; Kd = 10.3 µM
SMILES = CC[N+](CC)(CC)CC; target = S-type K+ channel (Aplysia californica); assay = single-channel current, open-channel blocker, inside-out patch clamp; setting = pH 7.4, internal application, 0 mV; Kd = 42000 µM
SMILES = COc1cccc2c1C(=O)c1c(O)c3c(c(O)c1C2=O)C[C@@](O)(C(=O)CO)C[C@@H]3O[C@H]1C[C@H](N)[C@@H](O)[C@H](C)O1; target = Cytochrome P450 2J2 (CYP2J2, Homo sapiens, UniProt P51589); setting = 2 min, pH 7.4; Kd = 14.7 ± 1.99 µM
SMILES = O=C(O)CCc1nc2ncccn2n1; target = USP16 ZnF-UBD domain; Kd = > 1000 µM
SMILES = NCCCNCCCCNCCCN; target = MFS-type transporter SLC18B1 (SLC18B1, Homo sapiens, UniProt Q6NT16, E171A); assay = binder; Kd = 230 µM
SMILES = O=C(O)CCC(=O)N1CCc2ccccc21; target = USP16 ZnF-UBD domain; Kd = > 1000 µM
SMILES = OC[C@H]1OC(O)[C@H](O)[C@@H](O)[C@@H]1O (stereo partly shown); target = DDX50; assay = microscale thermophoresis; test system = PBST; setting = 25 °C, ATP-binding domain; Kd = 43.6 ± 23.1 µM
SMILES = Nc1nc2c(ncn2[C@@H]2O[C@H](COP(=O)(O)O)[C@@H](O)[C@H]2O)c(=O)[nH]1; target = GUK1 (Homo sapiens, UniProt Q16774, S37A); assay = binding, ITC; setting = 25 °C, with: GMP; Kd = > 500 µM
SMILES = COc1cc2c(cc1OC)[C@H]1C[C@@H](O)[C@H](CC(C)C)CN1CC2; target = MFS-type transporter SLC18B1 (SLC18B1, Homo sapiens, UniProt Q6NT16, F79A); assay = binder; setting = radiolabeled protein variants; Kd = 49 µM
SMILES = O=C(O)Cn1cnc2c(oc3ccccc32)c1=O; target = USP16 ZnF-UBD domain; Kd = 344 µM
SMILES = [N-]=[N+]=NCC1OC(OC2C(N)CC(N)C(OC3OC(CN)C(O)C(O)C3O)C2O)C(O)C(N)C1O (stereo not shown); target = DM1 CUG repeat RNA (12 copies); assay = binding, fluorescence; setting = 1 h, room temperature; Kd = 0.92 ± 0.067 µM
SMILES = Cc1cc2nc3c(=O)[nH]c(=O)nc-3n(C[C@H](O)[C@H](O)[C@H](O)COP(=O)(O)OP(=O)(O)OC[C@H]3O[C@@H](n4cnc5c(N)ncnc54)[C@H](O)[C@@H]3O)c2cc1C; target = Pre-mRNA cleavage complex 2 protein Pcf11 (PCF11, Homo sapiens, UniProt O94913); assay = binding, MS pulldown competition; test system = SW-620 cell lysate; Kd = 0.062 µM
SMILES = c1ccc(-c2ccc(OCCn3ccnc3)cc2)cc1; target = CYP2D6; assay = binding; setting = 20 min, pH 7.4, purified protein, 2% DMSO; Kd = 2.84 µM
SMILES = O=O; target = IDO1 (Homo sapiens, UniProt P14902); Kd = 2.6 ± 1.2 µM
SMILES = Nc1[nH]ncc1-c1ccccc1; target = CYP2D6; assay = binding; setting = 20 min, pH 7.4, purified protein, 2% DMSO; Kd = 74.1 µM
SMILES = Brc1ccc2nccnc2c1; target = CSNK1A1; assay = binding, surface plasmon resonance; setting = up to 50 µM; Kd = no binding
SMILES = Cc1ccc(S(=O)(=O)OC[C@H]2CO[C@](Cn3ccnc3)(c3ccc(Cl)cc3Cl)O2)cc1; target = CYP2D6; assay = binding; setting = 20 min, pH 7.4, purified protein, 2% DMSO; Kd = 3.36 µM
SMILES = CC[C@H](C)[C@H](NC(=O)[C@H](CC(C)C)NC(=O)[C@H](Cc1ccc(OP(=O)(O)O)cc1)NC(=O)[C@H](CCC(=O)O)NC(=O)[C@H](CC(=O)O)NC(=O)[C@H](C)NC(=O)[C@H](CC(=O)O)NC(=O)[C@@H](NC(=O)[C@@H](NC(=O)[C@H](CC(=O)O)NC(=O)[C@H](CC(=O)O)NC(=O)[C@H](CCSC)NC(=O)c1ccc2c(c1)C(=O)OC21c2ccc(N(C)C)cc2Oc2cc(N(C)C)ccc21)C(C)C)C(C)C)C(=O)N1CCC[C@H]1C(=O)N[C@@H](CCC(N)=O)C(=O)N[C@@H](CCC(N)=O)C(=O)NCC(=O)N[C@@H](Cc1ccccc1)C(=O)N[C@@H](CC(=O)O)C(=O)O; target = SH2/SH3 adapter protein NCK1, SH2 domain (NCK1, Homo sapiens, UniProt P16333); assay = binding; Kd = 1 µM
SMILES = COC(=O)c1ccc(N)cc1Cl; target = CSNK1A1; assay = binding, surface plasmon resonance; setting = up to 50 µM; Kd = no binding

Repeated from above:
SMILES = CC[C@H](C)[C@H](NC(=O)[C@H](CC(C)C)NC(=O)[C@H](Cc1ccc(OP(=O)(O)O)cc1)NC(=O)[C@H](CCC(=O)O)NC(=O)[C@H](CC(=O)O)NC(=O)[C@H](C)NC(=O)[C@H](CC(=O)O)NC(=O)[C@@H](NC(=O)[C@@H](NC(=O)[C@H](CC(=O)O)NC(=O)[C@H](CC(=O)O)NC(=O)[C@H](CCSC)NC(=O)c1ccc2c(c1)C(=O)OC21c2ccc(N(C)C)cc2Oc2cc(N(C)C)ccc21)C(C)C)C(C)C)C(=O)N1CCC[C@H]1C(=O)N[C@@H](CCC(N)=O)C(=O)N[C@@H](CCC(N)=O)C(=O)NCC(=O)N[C@@H](Cc1ccccc1)C(=O)N[C@@H](CC(=O)O)C(=O)O; target = SH2/SH3 adapter protein NCK1, SH2 domain (NCK1, Homo sapiens, UniProt P16333); assay = binding; Kd = 1 µM
SMILES = Nc1ncnc2c1ncn2[C@@H]1O[C@H](COP(=O)(O)OP(=O)(O)O)[C@@H](O)[C@H]1O; target = GUK1 (Homo sapiens, UniProt Q16774, N171A); assay = binding, ITC; setting = 25 °C, with: GMP; Kd = > 200 µM
SMILES = [N-]=[N+]=NCC1OC(OC2C(N)CC(N)C(OC3OC(CN)C(O)C(O)C3O)C2O)C(O)C(N)C1O (stereo not shown); target = DM1 CUG repeat RNA (12 copies); assay = binding, fluorescence; setting = 1 h, room temperature; Kd = 0.92 ± 0.067 µM
